Measured values of several laboratories.
Compare with care: the assays were run in different laboratories. Numbers after ± are the reported error.

Cc1nc(-c2ccc(OCC(C)C)c(C#N)c2)sc1C(=O)O
AUC(0-24) (human, plasma; oral, 20 mg once daily, added: verinurad 10 mg): 2410 ng·h/mL

CC(=O)O[C@H]1C(=O)[C@@]2(C)[C@H]([C@H](OC(=O)c3ccccc3)[C@]3(O)C[C@H](OC(=O)[C@H](O)[C@@H](NC(=O)c4ccccc4)c4ccccc4)C(C)=C1C3(C)C)[C@]1(OC(C)=O)CO[C@@H]1C[C@@H]2O
AUC(0-24) (human, plasma; intravenous, 80 mg/m^2, day 8, DL2, added: nilotinib 300 mg): 4.4 ± 1.48 µM·h

CC(C)(Sc1ccncc1-c1ccc(C#N)c2ccccc12)C(=O)O
AUC(0-24) (human, plasma; oral, 5 mg once daily, added: febuxostat 0 mg): 103 ng·h/mL

C[C@@H]1CCO[C@H]2Cn3cc(C(=O)NCc4ccc(F)cc4F)c(=O)c(O)c3C(=O)N12
AUC(0-24) (human paediatric patients, weight sample B to under sample C kg, plasma; oral, 20 mg film-coated tablet, steady state, geometric mean, population PK post-hoc, N 2): 28900 ng·h/mL

N#Cc1ccc2c(c1)[C@H]1CCCN(C(=O)c3ccc4[nH]cnc4c3)[C@H]1C2
AUC(0-24) (human, plasma; oral, 240 mg once daily, after first dose): 132 µM·h

Cc1ccc([C@@H]2O[C@H](CO)[C@@H](O)[C@H](O)[C@H]2O)cc1Cc1ccc(-c2ccc(F)cc2)s1
AUC(0-24) (human, maintenance hemodialysis patients; oral, 100 mg once daily, day 8, steady state, mean): 8270 ng·h/mL

COc1cc(C(=O)NC2CCN(C)CC2)c(F)cc1Nc1ncc(C(F)(F)F)c(Oc2cccc3c2C(=O)N(C)C3)n1
AUC(0-24) (human patients; oral, 25 mg, cycle 1 day 1, geometric mean): 2.18 µM·h

CC(=O)O.NC(=O)c1cnc(N[C@@H]2CCCC[C@@H]2N)nc1Nc1cccc(-n2nccn2)c1
AUC(0-24) (human, plasma; oral, 66 mg once daily): 1330 ng·h/mL

Cc1cc(Nc2cc3ncccc3c(N[C@@H]3C[C@H]4CC[C@@H](C3)N4CCC#N)n2)n[nH]1
AUC(0-24) (human, plasma; 10 mg): 0.868 ng·h/mL

CC(C)[C@H](N)C(=O)NCCCS(=O)(=O)O
AUC(0-24) (human both sexes, plasma; oral, 256.5 mg once daily days 8-14, day 14, fasted capsule): 7870 ng·h/mL

For quick reference, copied from above:
CC(C)[C@H](N)C(=O)NCCCS(=O)(=O)O
AUC(0-24) (human both sexes, plasma; oral, 256.5 mg once daily days 8-14, day 14, fasted capsule): 7870 ng·h/mL
